Experimental data collected from several papers.
Lines come from different studies, so protocols differ. Several values in a cell are separate wells, animals, samples, runs or records.
Target: Dual specificity protein kinase CLK2 (CLK2, Homo sapiens, UniProt P49760)

| Compound | assay | system | conditions | how to read | quantity | result |
| --- | --- | --- | --- | --- | --- | --- |
| NC(=O)C[C@H]1CCc2sc3ncnc(O[C@H]4CC[C@H](N5CCOCC5)CC4)c3c21 | enzyme activity, inhibitor |  | 10 µM |  | inhibition | 89% |
| C=CC(=O)Nc1cccc(-c2cnc3[nH]cc(C(=O)NC(C)(C)C)c3n2)c1 | kinase activity |  | 0.1 µM |  | inhibition | 73% and 75% |
| C=CC(=O)N1Cc2nc(-c3cc(-c4cc(Cl)cnc4Cl)c(F)cc3F)n(-c3ccncn3)c2C1 | cell-free assay, inhibitor |  | 1 µM |  | inhibition | 1% |
| Cc1ccc(-c2c(/C=C(\C#N)C(=O)NC(C)C)n(CCCO)c3ncnc(N)c23)cc1 | cell-free assay, competition with immobilised ligand |  | 1 µM |  | remaining binding | 76% |
| N[C@H]1CC[C@H](Nc2nccc(-c3cccnc3Oc3ccc(NC(=O)NC4CC4)c4ccccc34)n2)CC1 | kinobead competition pulldown | HEK293/HCT116 lysate mixture | 10 µM, 1 h, 4 °C | lower = stronger competition | log2 LFQ intensity | 24.9 and 25 and 24.8 |
| CNC(=O)C[C@H](Cc1ccc(C#N)cc1)NC(=O)c1cc(-c2ccc(CN[C@H](C)c3ccc(C)cc3)o2)ccc1Cl | enzyme activity, inhibitor |  | 1 µM |  | activity vs control | 106% |
| COc1cc(Nc2nccc(-c3cnn4nc(OC)ccc34)n2)cc(C(F)(F)F)c1 | binding, competition with immobilised ligand |  | 1 µM |  | remaining binding | 16% |
| CNC1C[S+]2CC[S+]3CC[S+](C1)[Ru-4]321([N]=C=S)[n]2c3ccc(OC)cc3c3c4c(c5cc(F)c[n+]1c5c32)C(=O)NC4=O (stereo not shown) | KinomeScan |  | 0.1 µM | reference: untreated | remaining binding | 1.8% |
| C=CC(=O)Nc1cc(-c2nn(C3CCN(CCNC(=O)[C@H](C)CCC45CC6CC(CC(C6)C4)C5)CC3)c3ncnc(N)c23)ccc1Oc1ccccc1 | inhibitor, KiNativ profiling | biochemical | 2 µM |  | inhibition | 21.6% |
| CN1CC[C@@H](COc2cnc(C#N)cc2-c2ccn3nc(NC(=O)C4CC4)cc3c2)C1 | enzyme activity, inhibitor |  | 1 µM |  | inhibition | 16% |
| Cc1cc(NC(=O)[C@H](O)c2cc(F)cc(F)c2)ccc1-c1cnc(N)c(C(=O)NC(C)C)c1 | binding, competition with immobilised ligand |  | 10 µM |  | remaining binding | 34% |
| COc1c(Cl)cccc1Nc1c(-c2ccncc2C#C[C@@]2(C)CCCN2C(=O)/C=C/CN(C)C)[nH]c2c1C(=O)NCC2 | binding, competition with immobilised ligand |  | 3 µM |  | remaining binding | 83% |
| Nc1ncc2c(n1)-c1c([nH]c3ccc(C4=CCOCC4)cc13)CCC2 | binding, competition with immobilised ligand |  | 1 µM |  | remaining binding | 20% |
| Cc1cnc2nc1Nc1cccc(c1)COC/C=C/COCc1cc(ccc1OCCN1CCOCC1)N2 | binding |  | 0.1 µM |  | remaining binding | 90% |
| Cc1cccc(O[C@H]2CCC[C@@H](C(C)CNCc3ccncc3)C2)c1 (relative stereo) | enzyme activity, inhibitor |  | 1 µM |  | inhibition | -1% |
| O=C(Cc1ccc(OCc2ccccc2)cc1)NC1(C(=O)O)CCN(C(=O)c2ccc(-c3cccc(Cl)c3)cc2)CC1 | enzyme activity, inhibitor |  | 10 µM |  | activity vs control | 83% |

Excerpt of the above:
| Compound | assay | system | conditions | how to read | quantity | result |
| --- | --- | --- | --- | --- | --- | --- |
| Cc1cccc(O[C@H]2CCC[C@@H](C(C)CNCc3ccncc3)C2)c1 (relative stereo) | enzyme activity, inhibitor |  | 1 µM |  | inhibition | -1% |
| O=C(Cc1ccc(OCc2ccccc2)cc1)NC1(C(=O)O)CCN(C(=O)c2ccc(-c3cccc(Cl)c3)cc2)CC1 | enzyme activity, inhibitor |  | 10 µM |  | activity vs control | 83% |
